Measured values pooled from the literature.
Lines come from different studies, so protocols differ. ± gives the spread as reported.

The GI50 of `O=C(/C=C/C=C/C=C/C1CCCCC1)NC1=C[C@@](O)(/C=C/C=C/C=C/C(=O)NC2=C(O)CCC2=O)[C@@H]2O[C@@H]2C1=O` is reported as 12.5 µM (Lu-65; cell growth, CellTiter-Glo; 78 h).
`O=C(O)C[C@H](O)C[C@H](O)/C=C/c1c(C2CC2)nc2ccccc2c1-c1ccc(F)cc1` gave an apoptotic cells of 0.9 ± 0.23 (COS-7; 3 µM, 24 h, 0.1% DMSO, unit not given; reference: vehicle control).
For `Cc1cccc(-c2[nH]c(CNc3ccccc3F)nc2-c2ccc3ncnn3c2)n1`, the viability was 23% (MM1.S; XTT; 1.8 µM; reference: untreated).
`Cn1cc(-c2ccc(-c3cncc(Cl)c3N3CCC4(CCNC4=O)CC3)cc2)cn1`: “fold change in expression” -1.05 (COLO 205; microarray, refers to: TXNIP; concentration not given, 2 h; reference: untreated cells).
`O=C(O)CCc1nc(-c2ccccc2)c(-c2ccccc2)o1` gave an apoptotic cells of 0.74 ± 0.1 (COS-7; 50 µM, 24 h, 0.1% DMSO, unit not given; reference: vehicle control).
The viability of `Cc1nc2ccc(N(Cc3ccc(C(F)(F)F)cc3)Cc3ccc(C(F)(F)F)cc3)cc2o1` is reported as 124 ± 8.75% (sample A patient iPSC-derived NPCs; MTS; 10 µM, 24 h; reference: vehicle).
`COc1cc2ncnc(Nc3ccc(Oc4ccccc4)c(C)c3C)c2cc1OC` gave a viability of 70.7% (COLO 205 (BRAF V600E); resazurin; 3 µM, 72 h, with: trametinib; reference: DMSO).
`CCOC(=O)NCCCC(=O)NCCc1ccccc1` gave a viability of 177% (OCI-Ly1; 0.1 µM, 120 h).
The viability of `Cc1nc2ccc(N(Cc3ccc(F)cc3)Cc3ccc(F)cc3)cc2[nH]1` is reported as 123 ± 15.1% (sample A patient iPSC-derived NPCs; MTS; 10 µM, 24 h; reference: vehicle).
`Cn1cc(/C=C/C(=O)c2cccc(F)c2)cc1/C=C/C(=O)NO` gave a viability of 149% (OCI-Ly1; 0.5 µM, 120 h).
`COc1cc2ncnc(Nc3ccc(Oc4ccccc4)cc3C)c2cc1OC` gave a viability of 103% (COLO 205 (BRAF V600E); resazurin; 0.1 µM, 72 h, with: trametinib 0 nM).
For `CC(C)(C)OC(=O)CN(Cc1ccc(Cl)cc1)Cc1ccc([N+](=O)[O-])s1`, the viability was 104% (OCI-Ly1; 1 µM, 120 h).
With `Fc1ccc(CN(Cc2ccc(F)cc2)c2ccc3c[nH]nc3c2)cc1` the viability was 110 ± 10.3% (sample A patient iPSC-derived NPCs; MTS; 10 µM, 24 h; reference: vehicle).

A few entries again:
`O=C(O)CCc1nc(-c2ccccc2)c(-c2ccccc2)o1` gave an apoptotic cells of 0.74 ± 0.1 (COS-7; 50 µM, 24 h, 0.1% DMSO, unit not given; reference: vehicle control).
The GI50 of `O=C(/C=C/C=C/C=C/C1CCCCC1)NC1=C[C@@](O)(/C=C/C=C/C=C/C(=O)NC2=C(O)CCC2=O)[C@@H]2O[C@@H]2C1=O` is reported as 12.5 µM (Lu-65; cell growth, CellTiter-Glo; 78 h).
